Published values from different studies.
Compare with care: the assays were run in different laboratories. Several values in a cell are separate wells, animals, samples, runs or records. ± marks the error that the study gave.
USP14: Ubiquitin carboxyl-terminal hydrolase 14 (USP14, Homo sapiens, UniProt P54578)
Rac GTPase-activating protein 1: Rac GTPase-activating protein 1 (Homo sapiens, UniProt Q9H0H5)
ELANE: Neutrophil elastase (ELANE, Homo sapiens, UniProt P08246)
PI4KB: Phosphatidylinositol 4-kinase beta (PI4KB, Homo sapiens, UniProt Q9UBF8)
F12: Coagulation factor XII (F12, Homo sapiens, UniProt P00748)

Compound | target | test | test system | setting | inhibition
O=c1c(=NO)c(=NO)c(=O)c2ccccc12 | USP14 | enzyme activity, inhibitor |  | 17 µM | 74%
C#CC[C@@]1(O)C[C@@H](C)N2CCc3cc(OCc4cc(C)cc(C)c4)c(OCc4cc(C)cc(C)c4)cc3[C@H]2C1 | Rab GDP dissociation inhibitor beta, with Rab1A (Homo sapiens, UniProt P50395) | GDI2-Rab1A interaction, NanoLuc complementation |  | 6.25 µM | 82.5%
CN(Cc1ccc(/C=C/C(=O)NO)cc1)CC12CC3CC(CC(C3)C1)C2 | alpha2 adrenoceptor | antagonist radioligand binding |  | 0.05 µM | -7%
Cn1c(CNc2ccccc2Cl)nc2ccccc21 | Rac GTPase-activating protein 1 | enzyme activity, inhibitor, ADP detection |  | 10 µM | 71.5%
Cl.Cl.N[C@@H](C(=O)N1CCCC1)C1CCN(c2nccc3c(-c4ncc(Cl)cc4Cl)cccc23)CC1 | Protein-arginine deiminase type-4 (PADI4, Homo sapiens, UniProt Q9UM07) | enzyme activity, inhibitor |  | 75.9 pM, together with: Ca2+ 0.4 mM | -6.37% and 1.41% and -7.98%
CC(=O)C12NC(C)(C)CC1(C)C(=O)C1=C2c2c(c3c4n2C(C)(C)CC2=C4C4(CC(C)(C)NC(C)(C4)C2=O)CC3(C)C)C(=O)C(C)(C)N1 (single isomer, unassigned; (+)) | Sodium channel protein type 10 subunit alpha (SCN10A, Homo sapiens, UniProt Q9Y5Y9) | sodium current, antagonist, whole-cell patch clamp | HEK293T cells | 10 µM, resting state (TP1) | 23.87 ± 0.01%
O=C(NN=C1CC(=NNC(=O)c2ccncc2)c2ccccc21)c1ccncc1 | USP14 | enzyme activity, inhibitor |  | 17 µM | 94%
O=c1ccsn1Cc1ccccc1 | Rac GTPase-activating protein 1 | enzyme activity, inhibitor, ADP detection |  | 20 µM | 78.5%
C[C@H](NC(=O)[C@H](CC(=O)NCC(C)(C)C)NC(=O)CCc1ccccc1)C(=O)NCc1ccccc1Cl | ELANE | enzyme activity, inhibitor |  | 100 µM | 12%
c1ccc(OC[C@H]2CN(CCN3CCc4ccccc43)CCO2)nc1 | 5-hydroxytryptamine receptor 2B (HTR2B, Homo sapiens, UniProt P41595) | radioligand binding |  | concentration not given, together with: [3H]LSD | 75.6%
C/C=C/C(=O)Nc1ccc2nc(NCCCCCN(C)C)nc(NCCCCCCN(C)C)c2c1 | Histone-lysine N-methyltransferase SMYD3 (SMYD3, Homo sapiens, UniProt Q9H7B4) | enzyme activity, inhibitor, radiometric |  | 10 µM | 1%
N=C(N)NCCCC(NC(=O)C(CC(=O)NO)Cc1ccc2ccccc2c1)C(=O)NC(Cc1c[nH]c2ccccc12)C(=O)NC(CCC(=O)O)C(N)=O (centres unmarked) | Collagenase 3 (MMP13, Homo sapiens, UniProt P45452) |  |  | 1 µM | 14%
C=CC(=O)Nc1cccc(-c2cnc3[nH]cc(C(=O)NC(C)(C)C)c3n2)c1 | PI4KB | enzyme activity, inhibitor |  | 0.1 µM | 3%
Cc1ccc(CNC(=O)[C@H](CCc2ccccc2)NC(=O)[C@H](CCc2ccccc2)NC(=O)Cc2cccc(Oc3ccccc3)c2)cc1 | F12 | enzyme activity, inhibitor |  | 100 µM | 37%
CC1=C(C)C(=O)C(NCc2ccco2)=CC1=O | USP14 | enzyme activity, inhibitor |  | 17 µM | 44%
CCOC(=O)c1cnc2c(C)cc(C)cc2c1NCCCN(C)C | Rac GTPase-activating protein 1 | enzyme activity, inhibitor, ADP detection |  | 10 µM | 53.4%
Brc1ccccc1-c1nnc(CSc2nnnn2-c2ccccc2)o1 | 5-hydroxytryptamine receptor 7 (HTR7, Homo sapiens, UniProt P34969) | ligand displacement, radioligand |  | 10 µM | -31%
O=C1c2sc(-c3ccc(N4CCC(F)C4)nc3F)nc2CCN1c1cccnc1 (centres unmarked) | Vasopressin V1a receptor (AVPR1A, Homo sapiens, UniProt P37288) | ligand displacement, radioligand |  | 1 µM | -14%
O=C(NN=c1c(=O)c2ccccc2c1=O)c1ccncc1 | USP14 | enzyme activity, inhibitor |  | 17 µM | 83%
C[Si]1(C[C@H](CN)CC(=O)O)CCCC1 | glycine transporter, mouse | binding, radioligand binding |  | 70 µM, together with: [3H]glycine | 0%
CC1=NN(c2ccc(N)cc2)C(=O)C1 | USP14 | enzyme activity, inhibitor |  | 17 µM | 91%
O=C1CO[C@H](CNC(=O)C2(c3ccc(Cl)cc3)CC2)CN1C1Cc2ccccc2C1 | C-C chemokine receptor type 4 (CCR4, Homo sapiens, UniProt P51679) | β-arrestin recruitment, antagonist |  | 1 µM | -2%

Compound | target | test | test system | setting | inhibition
CC(=O)N1C(=O)NC(C)=C(C(=O)OCC(C)C)[C@H]1c1cccc([N+](=O)[O-])c1 | Voltage-dependent L-type calcium channel subunit alpha-1C (Cacna1c, Rattus norvegicus, UniProt P22002) | ion current, inhibitor, patch clamp | HEK293 | 10 µM | ~80%
O=C(CSc1nnc2c(n1)CCCC2)c1ccc(Cl)cc1 | USP14 | enzyme activity, inhibitor |  | 17 µM | 52%
CCOC(=O)C(Sc1nnc(-c2c[nH]c3ccccc23)n1C)C(=O)OCC | Rac GTPase-activating protein 1 | GAP activity, malachite green phosphate |  | concentration not given, orthogonal retest | 51.4%
CCn1cc(C(=O)O)c(=O)c2c(N)c(F)c(NC3CCCCC3)cc21 | Mitotic checkpoint serine/threonine-protein kinase BUB1 beta (BUB1B, Homo sapiens, UniProt O60566) | kinase activity |  | 0.1 µM, together with: ATP at Km | 25.5%
COCC(=O)N1CCc2cc(-c3csc(NC(=O)c4cc(OC)cc(OC)c4)n3)ccc21 | Sigma non-opioid intracellular receptor 1 (SIGMAR1, Homo sapiens, UniProt Q99720) | cell-free assay |  | 10 µM | -20%
C=CCNC(=O)[C@H](CCc1ccccc1)NC(=O)[C@H](CC(=O)NCC(C)(C)C)NC(=O)CCc1ccccc1 | ELANE | enzyme activity, inhibitor |  | 100 µM | 2%
C[Si](C)(C)C[C@H](CN)CC(=O)O | glycine transporter, mouse | binding, radioligand binding |  | 250 µM, together with: [3H]glycine | -4%
C=CC(=O)N1Cc2nc(-c3cc(-c4cc(Cl)cnc4Cl)c(F)cc3F)n(-c3ccncn3)c2C1 | 5'-AMP-activated protein kinase catalytic subunit alpha-1, with beta2, gamma3 (PRKAA1, Homo sapiens, UniProt Q13131) | kinome panel |  | 1 µM | 10.3%
CN1CCN(Cc2ccc(-c3ccc(CO[C@H]4CCC[C@@H]4NC(=O)c4cc(-c5cnn(C)c5)cnc4N)cc3)cc2)CC1 | 5'-AMP-activated protein kinase catalytic subunit alpha-1, with beta2, gamma1 (PRKAA1, Homo sapiens, UniProt Q13131) | SelectScreen kinase profiling |  | 0.1 µM | 0%
Cc1cccc(O[C@H]2CCC[C@@H](C(C)CNCc3ccncc3)C2)c1 (relative stereo) | PI4KB | enzyme activity, inhibitor |  | 10 µM | 12%
NC1=CC(=O)c2ccccc2C1=O | USP14 | enzyme activity, inhibitor |  | 17 µM | 69%
O=C(Nc1ccc(C(F)F)cc1)[C@H](CC1CCCCC1)Nc1nn2c(=O)ccnc2s1 | Low molecular weight phosphotyrosine protein phosphatase, isoform B (ACP1, Homo sapiens, UniProt P24666) | enzyme activity, inhibitor |  | 10 µM, LMPTP-B isoform | -1%
Cc1ccc(CNC(=O)[C@H](CCc2ccccc2)NC(=O)[C@H](CC(=O)NCC(C)(C)C)NC(=O)c2ccc(OCc3ccccc3)cc2)cc1 | F12 | enzyme activity, inhibitor |  | 100 µM | 34%
O=C(O)C1Nc2ccc(Cl)cc2C2C=CCC12 (centres unmarked) | Rac GTPase-activating protein 1 | GAP activity, malachite green phosphate |  | concentration not given, orthogonal retest | 59.5%
Cc1ccc(CNC(=O)C(CCc2ccccc2)NC(=O)C(NC(=O)Cc2cccc(Oc3ccccc3)c2)C(C)O)cc1 (centres unmarked) | F12 | enzyme activity, inhibitor |  | 100 µM | 38%
CCOC(=O)C1=C(C)OC2(O)c3ccccc3C(=O)C12O (centres unmarked) | USP14 | enzyme activity, inhibitor |  | 17 µM | 13%
c1ccc(CSc2nnc(-c3ccco3)c(-c3ccco3)n2)cc1 | Rac GTPase-activating protein 1 | enzyme activity, inhibitor, ADP detection |  | 10 µM | 51.8%
COc1ccc(S(=O)(=O)N2CCc3ccccc3C2)cc1N1CCN(C(=O)c2ccc(F)cc2C(F)(F)F)CC1 | Pituitary adenylate cyclase-activating polypeptide type I receptor (ADCYAP1R1, Homo sapiens, UniProt P41586) | ligand displacement, radioligand |  | 1 µM | 3.8%
O=C1CC(=O)N(c2ccccc2)N1c1ccccc1 | Rac GTPase-activating protein 1 | GAP activity, malachite green phosphate |  | concentration not given, orthogonal retest | 47.5%
CC(C)C[C@@H](NC(=O)C(=O)O)C(=O)O | Lysine-specific demethylase 4E (KDM4E, Homo sapiens, UniProt B2RXH2) | H3K9me3 demethylation, FDH-coupled |  | concentration not given | 14%
COc1ccc2c(c1)CCc1sc(N)nc1-2 | Rac GTPase-activating protein 1 | enzyme activity, inhibitor, ADP detection |  | 10 µM | 87.4%
CS(=O)(=O)Nc1cccc(-c2csc3cnc(Nc4ccc(N5CCN(CCCCCOc6cccc7c6C(=O)N(C6CCC(=O)NC6=O)C7=O)CC5)cc4)nc23)c1 (centres unmarked) | Serine/threonine-protein kinase greatwall (MASTL, Homo sapiens, UniProt Q96GX5) | probe labelling, inhibitor, KiNativ chemoproteomics | MOLT-4 | 1 µM | 24.4%
